# Results of several laboratories.
# ± marks the error that the study gave.
# Ugcg: Ceramide glucosyltransferase (Ugcg, Mus musculus, UniProt O88693)
# Sequence of UniProt O88693 (whole entry, looked up): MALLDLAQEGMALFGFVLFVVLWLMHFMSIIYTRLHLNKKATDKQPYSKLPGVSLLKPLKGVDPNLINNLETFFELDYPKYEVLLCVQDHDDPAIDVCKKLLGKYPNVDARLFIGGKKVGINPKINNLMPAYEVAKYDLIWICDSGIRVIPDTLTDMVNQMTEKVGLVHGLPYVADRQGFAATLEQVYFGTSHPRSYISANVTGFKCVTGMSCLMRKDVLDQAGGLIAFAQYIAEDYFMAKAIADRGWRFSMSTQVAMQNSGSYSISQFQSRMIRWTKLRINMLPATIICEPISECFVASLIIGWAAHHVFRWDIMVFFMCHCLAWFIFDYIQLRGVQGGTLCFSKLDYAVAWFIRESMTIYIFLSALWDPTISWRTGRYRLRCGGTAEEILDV
# Sequence of UniProt Q16620 (whole entry, looked up): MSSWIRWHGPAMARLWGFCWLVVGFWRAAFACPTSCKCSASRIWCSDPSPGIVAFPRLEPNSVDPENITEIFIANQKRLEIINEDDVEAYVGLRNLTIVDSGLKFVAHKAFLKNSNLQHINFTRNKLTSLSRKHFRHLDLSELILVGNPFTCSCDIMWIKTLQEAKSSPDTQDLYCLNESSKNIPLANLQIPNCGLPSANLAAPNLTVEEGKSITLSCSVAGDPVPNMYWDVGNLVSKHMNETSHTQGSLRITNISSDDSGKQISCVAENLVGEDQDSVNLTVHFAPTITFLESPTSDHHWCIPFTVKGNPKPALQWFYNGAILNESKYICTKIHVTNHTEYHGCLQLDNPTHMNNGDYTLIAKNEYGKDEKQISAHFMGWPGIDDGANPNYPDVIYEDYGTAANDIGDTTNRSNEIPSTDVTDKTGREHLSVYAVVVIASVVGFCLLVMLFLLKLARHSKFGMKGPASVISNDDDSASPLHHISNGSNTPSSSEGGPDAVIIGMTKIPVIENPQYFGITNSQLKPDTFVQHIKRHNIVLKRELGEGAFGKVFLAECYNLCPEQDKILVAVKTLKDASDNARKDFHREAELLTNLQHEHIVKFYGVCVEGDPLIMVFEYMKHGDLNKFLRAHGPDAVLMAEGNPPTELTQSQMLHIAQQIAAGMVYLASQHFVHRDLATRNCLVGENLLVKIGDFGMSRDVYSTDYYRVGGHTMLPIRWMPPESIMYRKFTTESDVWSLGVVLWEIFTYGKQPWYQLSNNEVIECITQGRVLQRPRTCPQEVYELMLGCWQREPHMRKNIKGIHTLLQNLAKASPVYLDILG
Structure (SMILES),target or system,test,system,setting,scale,measurement,result
CCN(CC)c1ccc2c(c1)O[B-]1(c3ccc(C)cc3)OC(=O)C(c3ccccc3)=N[N+]1=C2 (stereo not shown),,,toluene,,,fluorescence emission maximum,508 nm
OC[C@@H]1[C@@H](O)[C@H](O)[C@@H](O)CN1CCCCCOCC1CCOCC1,Ugcg,"enzyme activity, inhibitor",RAW264.7,"in situ, together with: C6-NBD-ceramide",,IC50,10000 nM
O=C(Nc1cc(-c2ccnc3[nH]ccc23)c(Cl)cn1)[C@H]1CCC[C@@H](NC(=O)C(F)(F)F)C1,,,human liver microsomes,,,hepatic clearance,12 mL/min/kg
CCCC[C@H](NC(=O)CCCCCCCNC(=O)CN1CCN(CC(=O)O)CCN(CC(=O)O)CC1)C(=O)N[C@H]1CC(=O)NCCCC[C@@H](C(N)=O)NC(=O)[C@H](Cc2c[nH]c3ccccc23)NC(=O)[C@H](CCCNC(=N)N)NC(=O)[C@@H](Cc2ccccc2)NC(=O)[C@H](Cc2c[nH]cn2)NC1=O [technetium-99m labelled],,,"C57 mouse, bone","intravenous, 0.037 MBq, 0.5 h",,tissue uptake,0.63 ± 0.15 %ID/g
COc1cccc(OC)c1-c1cc(C(=O)NC2(C(=O)O)C3CC4CC(C3)CC2C4)nn1-c1ccc(C(=O)NCCNC(=O)[C@H](CCCCNC(=O)[C@H](CC(C)C)NC(=O)C2OC2C(=O)O)NC(=O)CN2CCN(CC(=O)[O-])CCN(CC(=O)[O-])CCN(CC(=O)[O-])CC2)cc1C(C)C.[177Lu+3] (mixture of isomers),,,"mouse, HT-29 xenograft","4 h post injection, biodistribution",relative to: tumour over bone uptake,tumour-to-bone ratio,15.5
O=C(Nc1cnccc1-c1ccc([18F])cc1)c1ccnc(NC(=O)C2CC2)c1,,ex vivo gamma counting,"GSK-3β transgenic mice, early-stage, brain stem","intravenous, 120 min, together with: tariquidar 15 mg/kg iv",,mean SUV,0.24
[2H]C([2H])([2H])Oc1cc2c(cc1OC([2H])([2H])[2H])[C@H]1C[C@H](O)[C@H](CC(C)C)CN1CC2 (relative stereo),,refers to: deuterated analyte,"healthy human male, plasma","oral, 25 mg, median, [14C]-deutetrabenazine dosed",,Tlag,0.33 h
OC1(C(F)(F)F)CCN(c2nc(Nc3ccnc(C(F)(F)F)c3)nc(-c3cccc(C(F)(F)F)n3)n2)C1 (stereo not shown),,,"monkey, plasma","oral, 10 mg/kg",,Cmax,2490 ± 587 ng/mL
Nc1ncc(-c2ccc(C3CCCCC3)cc2)cn1,,liver microsome stability,rat liver microsomes,1 µM,,hepatic clearance,40 mL/min/kg
O=c1cc(/C=C/c2ccc(N(c3ccccc3)c3ccccc3)cc2)oc(/C=C/c2ccc(N(c3ccccc3)c3ccccc3)cc2)c1,,,acetonitrile/water 1:19 v/v,"10 µM, 298 K, aggregate nanoparticle suspension",,fluorescence quantum yield,0.048
O=C(O)c1ccc(/C=C2\SC(=S)N(Cc3cccc(C(F)(F)F)c3)C2=O)cc1,,,human liver microsomes,1 µM,,hepatic clearance,< 4.7 mL/min/kg
O=C(NC1CCOCC1)c1ccc([C@H]2[C@@H](F)[C@@H](F)C[C@@H](F)[C@H]2F)cc1,,hepatocyte stability,cryopreserved human hepatocytes,1 µM,,hepatic clearance,6.2 mL/min/kg
O=C(N1CCCCC1)C12CC(c3ccccc3)(C1)C2(F)F,,metabolic stability,"human, liver microsomes","2 µM, 15 min, pH 7.4",,compound remaining,91%
COc1cccc(OC)c1-c1cc(C(=O)NC2(C(=O)O)C3CC4CC(C3)CC2C4)nn1-c1ccc(C(=O)N(C)CCOCCN(C)C(=O)[C@H](CCCCNC(=O)[C@H](CC(C)C)NC(=O)C2OC2C(=O)O)NC(=O)CN2CCN(CC(=O)[O-])CCN(CC(=O)[O-])CCN(CC(=O)[O-])CC2)cc1C(C)C.[177Lu+3] (mixture of isomers),,,"mouse, HT-29 xenograft","72 h post injection, biodistribution",relative to: tumour over kidney uptake,tumour-to-kidney ratio,0.49
CCn1nc(Cl)c2c1-c1cnc(N)c(c1)O[C@H](C)c1cc(F)ccc1-c1nn(C)cc1C2,"NTRK2 (Homo sapiens, UniProt Q16620)","enzyme activity, inhibitor",,together with: 1 mM ATP,,IC50,26 nM
CS(=O)(=O)c1ccc(-c2ccc(C3CCCCC3)cc2)cn1,,liver microsome stability,mouse liver microsomes,1 µM,,hepatic clearance,65 mL/min/kg
COc1cnc2cccc(N3CCc4c(cc(Cn5ccnc5)cc4-c4cn(C)nc4C(F)(F)F)C3=O)c2c1,,,"CD-1 mouse, male, plasma","intraperitoneal, 10 mg/kg",,AUC extrapolated fraction,0%
O=C(NCc1cccc(Cl)c1)c1ccc(C2CCCCC2)cc1,,hepatocyte stability,cryopreserved rat hepatocytes,1 µM,,hepatic clearance,43 mL/min/kg
N#Cc1cccc(-c2ccc(COCCCCCN3C[C@H](O)[C@@H](O)[C@H](O)[C@H]3CO)cc2)c1,Ugcg,"enzyme activity, inhibitor, fluorescence",,,,IC50,50 nM
C=CC(=O)Nc1cc(Nc2nccc(-c3cn(C)c4ccccc34)n2)c(OC)cc1N(C)CCNC,,,human plasma,"72 h, storage stability, LLOQ sample",,recovery,51.2%
O=C(CCC(F)(F)F)Nc1ccc([C@H]2[C@@H](F)[C@@H](F)C[C@@H](F)[C@H]2F)cc1,,liver microsome stability,rat liver microsomes,1 µM,,hepatic clearance,13 mL/min/kg
C=C(NC(=O)c1csc(-c2nc3c(cc2O)-c2nc(cs2)C(=O)NC(C(C)O)C(=O)NC(=C(C)OC)c2nc(cs2)C(=O)NC2c4nc(cs4)C(=O)NC(COC(=O)c4c5c6c(cccc6n4O)COC(=O)C(OC4CC(C)(O)C(N(C)C)C(C)O4)C2OC5)c2nc-3cs2)n1)C(N)=O (stereo not shown),,,"ICR mice, Streptococcus pneumoniae ATCC 49169 infected, immunocompromised, blood","intravenous, 4 mg/kg/day twice daily",,Tmax,4.8 min
CN1CCC(c2ccc(-c3ccc([C@H]4[C@@H](F)[C@@H](F)C[C@@H](F)[C@H]4F)cc3)cn2)CC1,,liver microsome stability,dog liver microsomes,1 µM,,hepatic clearance,28 mL/min/kg
CCc1cnc(NC(=O)c2cc(S(=O)(=O)N3CCOCC3)ccc2N(C)C2CCCC2)s1,,,"mouse, serum","10 mg/kg, 3 doses",,Triglyceride,102 mg/dL
O=C(Nc1cnccc1-c1ccc([18F])nc1)c1ccnc(NC(=O)C2CC2)c1,,,"FVB/NJ mouse, both sexes, brain","intravenous, 1 min post-injection, together with: P-gp inhibitor tariquidar 15 mg/kg iv",,SUV,0.36 ± 0.2
O=C(O)CCCOc1ccc([18F])cc1-c1cc(-c2ccccc2C(F)(F)F)n(-c2ccccc2)n1,,,"mouse, large intestine","intravenous, dose not given, 5 min",,tissue uptake,0.73 ± 0.05 %ID/g
C[C@@H](O)[C@@H]1NC(=O)[C@H](CCCCN)NC(=O)[C@@H](Cc2c[nH]c3ccccc23)NC(=O)[C@H](Cc2ccc(O)cc2)NC(=O)[C@@H](NC(=O)[C@@H](Cc2ccccc2)NC(=O)CN2CCN(CC(=O)O)CCN(CC(=O)O)CCN(CC(=O)O)CC2)CSSC[C@@H](C(=O)N[C@H](CO)[C@@H](C)O)NC1=O [gallium-67 labelled],,gamma counting,"ICR mice, male, blood","iv, 11 kBq/mouse, 1 h",,tissue uptake,0.32 ± 0.06 %ID/g
O=C(Nc1ccc(C2CCCCC2)cc1)C1(N2CCOCC2)CC1,,hepatocyte stability,cryopreserved human hepatocytes,1 µM,,hepatic clearance,18 mL/min/kg
CN1CCC[C@]1(C)/C=C/S(=O)(=O)NC(=O)Nc1c2c(cc3c1CCC3)CC=C2,,,"human, plasma","oral, 12.5 mg twice daily of parent drug, day 14, metabolite of dosed drug",,AUC(0-inf),203 µg·h/mL
NS(=O)(=O)c1cccc(-c2ccc([C@H]3[C@@H](F)[C@@H](F)C[C@@H](F)[C@H]3F)cc2)c1,,hepatocyte stability,cryopreserved rat hepatocytes,1 µM,,hepatic clearance,10 mL/min/kg
C/C(N)=N/C(=N\S(=O)(=O)c1ccc(C(F)(F)F)cc1)N1C[C@H](c2ccccc2)C(c2ccc(Cl)cc2)=N1,,,"male Sprague-Dawley rat, plasma","intravenous, 2 mg/kg",,half-life,3.9 h
